Measured values of several laboratories.
Numbered parts are unrelated; each lists some results of a single study.

Sample 1
Target: Fragile X messenger ribonucleoprotein 1, C-terminal low-complexity region (Fmr1, Mus musculus, UniProt P35922)
Technique: RNA Bind-n-Seq
Form: RNA
Matrix: in vitro
Concentration: 200 nM
Setting: whole 134-nt RNA, ends assumed
Added: 150 mM LiCl
Reference: input library
Reading: higher = stronger binding
Quantity: log2 enrichment
All molecules: 7-deaza-guanosine replaces G
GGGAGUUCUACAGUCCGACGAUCCUCAAGUCCUGUGCUACACAUCGUAUGUACCGAAUCGGGCCGGGCCGGGCCGGGAAAGUAUUAUGUUACGCCGUUCGGAUCUGCACUUCCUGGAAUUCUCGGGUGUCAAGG: 0.852
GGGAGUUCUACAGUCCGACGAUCAAGUCCUGUGCUACACAUCGUAUGUACCGAAUCGGGGAAAGGGGUUUGGGGUGGGGAAAGUAUUAUGUUACGCCGUUCGGAUCUGCACUUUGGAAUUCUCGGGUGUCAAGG: -0.803
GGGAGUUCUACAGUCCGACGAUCCAAGUCCUGUGCUACACAUCGUAUGUACCGAAUCGGAAAAGGAAAAGGAAAAGGGAAAGUAUUAUGUUACGCCGUUCGGAUCUGCACUUCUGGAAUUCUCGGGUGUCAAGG: -0.735
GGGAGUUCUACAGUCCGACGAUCUCCUGUGCUACACAUCGUAUGUACCGAAUCAAACCCCCCCAAACCCAAAUUUUUUUAAAAAAGUAUUAUGUUACGCCGUUCGGAUCUGCAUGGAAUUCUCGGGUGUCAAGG: 1.6
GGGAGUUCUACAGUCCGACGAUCACCAUGCAGGUGGGCAUCUUUGGGAAGUGGGGCAAGGGGGGGAUAGGGAGGGGGGUAACACUUUGGGAACAGGUGGUCCCAGGAAAUUUCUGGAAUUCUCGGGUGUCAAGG: 1.21
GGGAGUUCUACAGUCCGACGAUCCAAGUCCUGUGCUACACAUCGUAUGUACCGAAUCGGGAAAGGGUUUUUGGGAGGGAAAGUAUUAUGUUACGCCGUUCGGAUCUGCACUUCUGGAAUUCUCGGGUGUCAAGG: -0.672
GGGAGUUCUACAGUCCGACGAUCUCAAGUCCUGUGCUACACAUCGUAUGUACCGAAUCGGUUUUUGGAAAGGAAAGGAAAGUAUUAUGUUACGCCGUUCGGAUCUGCACUUCCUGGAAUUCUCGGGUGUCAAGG: -0.712
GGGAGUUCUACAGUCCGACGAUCUUUCCCCUGGAGGGCGCCUCCAUCCUUGGAGGCCUAGUGCCGUCGGAGAGAGAGCGGGAGCCGCGGACAGAGACGCGUGCGCAAUUCGGAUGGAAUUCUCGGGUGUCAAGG: -2.42
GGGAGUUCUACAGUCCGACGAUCACCAUGCAGGUGGGCAUCUUUGGGAAGUGGGGCAAGGGGGGGAUAGGGAGGGGGGUAACACUUUGGGAAUAGGUGGUCCCAGGUCGUUUCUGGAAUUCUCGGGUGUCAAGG: 1.46
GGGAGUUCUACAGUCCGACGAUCUCCUGUGCUACACAUCGUAUGUACCGAAUCAAACCCCCAAAUUUUUAAAUUUUUUUAAAAAAGUAUUAUGUUACGCCGUUCGGAUCUGCAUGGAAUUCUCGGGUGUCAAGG: 1.39
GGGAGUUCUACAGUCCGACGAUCUUCCUCAAGUCCUGUGCUACACAUCGUAUGUACCGAAUCGGUGGUGGGUGGAAAGUAUUAUGUUACGCCGUUCGGAUCUGCACUUCCAGCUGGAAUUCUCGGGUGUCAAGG: 1.08

Sample 2
Target: RNA binding protein fox-1 homolog 2, RRM domain, GST-SBP tag (RBFOX2, Homo sapiens, UniProt O43251-10, residues 100-194)
Technique: RNA Bind-n-Seq
Form: RNA
Matrix: in vitro
Concentration: 365 nM
Setting: natural RNA segment, single round, ends assumed
Reference: no-protein control
Reading: higher = stronger binding
Quantity: RBNS enrichment (R)
Construct (chain): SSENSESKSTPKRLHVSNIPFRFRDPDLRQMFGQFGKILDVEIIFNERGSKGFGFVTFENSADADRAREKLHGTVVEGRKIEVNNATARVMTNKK
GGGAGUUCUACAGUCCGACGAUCGCUUGAGUUGCCUUGUAGAGCUACUUGAAGACCCCAACAUAAGUGCUUCACUGAUCUUAAGUAUUAUCGGUUUGCUGUCUCAACUAGCAGUAGACAUUGAAACCAGAGAUUGGAAUUCUCGGGUGCCAA: 1.12
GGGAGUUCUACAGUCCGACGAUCGUAAUCACUUCUGUUUUUUUCUUUUUCAUUACUUUGCUACCACCUCCAUCCCAUGACAUUAUACUGUGAAGUGUAAGAGGACGGGGUUUUUUUAAACUUGGUAGAAAUGUUGGAAUUCUCGGGUGCCAA: 0.603
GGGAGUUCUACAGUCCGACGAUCGUGAGACAGCCAGGUGUCUUUCUUUUGCGGGGGGACACUUCAGACCCAUCAAUAUGGAAUUUUGGGAGCCGACCUGAGUGCAAAUCCUAAUUCUGCCCCUGUUGGUGCAGUGGAAUUCUCGGGUGCCAA: 0.22
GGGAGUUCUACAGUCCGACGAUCCAAAUACACAUUUUAUGCUAGAAAAAGUGUACUUAAUAGGAAUUAUUUUUGUUUUCCUAAAGAAAAUGCCUAAUAUAGAGAAAACAAUACAUAUCUUUACAGCUUAUUUGUGGAAUUCUCGGGUGCCAA: 6.14
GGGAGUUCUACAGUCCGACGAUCAGCGCUGUGCUACCAGUAGCUUUGGGGUUUUGGAAGCAGACACACCAAAGCCGAGCAUCAUAGAGAAUGAAUCCCUCUGGAAACACUUACUCUCAGAAAAUGACACUCUUUGGAAUUCUCGGGUGCCAA: 0.284
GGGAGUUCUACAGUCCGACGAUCUCUGAAACCAGUGUUAGGGAAGGGCCUGCCACAGCCUCCCCUGCCAGGGCAGGGCCCCAGGCAUUGCCAAGGGCUUUGUUUUGCACACUUUGCCAUAUUUUCACCAUUUGUGGAAUUCUCGGGUGCCAA: 0.533
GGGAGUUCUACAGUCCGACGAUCAAUUUUGUUCAAAAUCCGAAUAAUAAUAGAUAACAGAAAUAACAGUCUUAAAGGCUGACUGGGAGGCCAUGAACUGUUCACAAGGAGCACGGCUCUGCAGGCGUUGAAUAUGGAAUUCUCGGGUGCCAA: 0.383
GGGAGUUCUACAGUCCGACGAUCUGUUAGAAACAAGGCUACAGUUUUAAAAUGGCUUGGUUCUGUCCUUGCAAUUGCUUUGUCGUGGCAAGUGUGUUGUUCUACUCUCUCUUGUUUGAAACAAUGCUUGACAAUGGAAUUCUCGGGUGCCAA: 1.46
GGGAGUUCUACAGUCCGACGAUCAGUUGGCAAAGCACUGGGUAUCUUGUGCGGCUGCCGUGGAAGGCGGCCCUGCUCGAUGCAGGGUCUGCAGUGGCCUGAGGGCAGCCAGGCACUGCAUGCCUGUCUCCUUAUGGAAUUCUCGGGUGCCAA: 0.633
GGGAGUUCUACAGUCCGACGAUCCCAUCUGGGUUUUAAGUUCAGAUGUGAACAUUUUUUAGUGCUUCUUUUUCUUUUACUUAAUGAACAUGUGAUAUGAGUAGUGAUGUGCAAAAGCACAGACGUUCAUGUUUUGGAAUUCUCGGGUGCCAA: 0.416
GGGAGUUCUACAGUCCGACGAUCGUCCACAAUGCUUUUGUUGUCUUGUCCUGCUUCUCUAGUCCAGGGGAGACCAAAAGCUCAUACUCCUAACCCUAGGAAAGGGUUUUAGGGAGCCAAGGACCAGAGAGCCAUGGAAUUCUCGGGUGCCAA: 0.246
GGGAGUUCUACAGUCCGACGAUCACCAUCACCCUCUCUGUCCCUCCUCAGCCACGCCCAAGUGUACUGGGAUACCUAAGGACCAAUGUUUUCUUCCUCUUAGACACAAAUAAAGAUGCUGAGAAAAAGCAACAUGGAAUUCUCGGGUGCCAA: 0.21

Sample 3
Target: Interferon regulatory factor 7, full length, phosphomimetic (IRF7, Homo sapiens, UniProt Q92985, residues 1-503, S101K/S471D/S472D/S475D/S476D/S477D/S483D/S484D/S487D)
Technique: protein-binding microarray
Form: double-stranded DNA, one strand shown
Matrix: in vitro
Concentration: 250 nM
Setting: 60-bp whole probe
Added: salmon DNA 0.4 mg/ml
Reference: random background probes
Reading: higher = stronger binding
Quantity: log fluorescence
All sequences stand within: GCCTAGCAC … GTCTTGATTCGCTTGACGCTGCTG
Target sequence (chain): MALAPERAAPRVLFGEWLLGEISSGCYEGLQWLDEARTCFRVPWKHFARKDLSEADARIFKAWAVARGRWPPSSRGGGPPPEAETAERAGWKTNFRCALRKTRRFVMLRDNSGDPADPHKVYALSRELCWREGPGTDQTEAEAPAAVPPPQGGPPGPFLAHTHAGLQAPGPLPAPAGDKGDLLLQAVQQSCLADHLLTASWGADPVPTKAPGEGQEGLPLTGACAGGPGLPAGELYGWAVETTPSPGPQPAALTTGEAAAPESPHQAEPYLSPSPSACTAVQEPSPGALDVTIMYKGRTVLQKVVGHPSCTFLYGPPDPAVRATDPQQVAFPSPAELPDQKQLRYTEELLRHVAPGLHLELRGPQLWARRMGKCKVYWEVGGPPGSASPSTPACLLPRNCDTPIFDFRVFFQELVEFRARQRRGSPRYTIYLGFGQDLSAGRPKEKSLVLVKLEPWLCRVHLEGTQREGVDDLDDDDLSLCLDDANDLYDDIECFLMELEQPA
TTAGGGCTGGGTTTCGGTTAGTGCTAG: 5.64 z-score
GACCGTCTCGGTCTCGGGACGTGCTAG: 0.596 z-score
TTAGGTCTCGGTATCAGTTAGTGCTAG: 2.11 z-score
GTCATACGAGCGGTAGCCAAGTGCTAG: -0.146 z-score
TTAGGTCTCTGTCTCGGTTAGTGCTAG: 0.8 z-score
TCAGATATCAGTATCGATTAGTGCTAG: 0.968 z-score
GACGGACTGCTACTGCAGACGTGCTAG: -1.04 z-score
GACGATTCCAGTTCCGAGACGTGCTAG: 0.829 z-score
TCAGCTCTGGCACCTCTAACTGTGCTA: -0.713 z-score
GTGGCAGGCCCTCGGGCTCCGTGCTAG: -1.21 z-score
TCACTTATCCAATCAGAACTGTGCTAG: 0.433 z-score
GAGGGTCTCGGTTTCGGGACGTGCTAG: 6.6 z-score
CTTTTTATGCTTTCTTTAACTGTGCTA: 2.47 z-score
TCAGCTTCCTCTTTTTTACTGTGCTAG: 0.299 z-score
TGCTTTCTCTTTCACTACTCGTGCTAG: 3.67 z-score
GACGATCTCAGCCTGGAGACGTGCTAG: -0.415 z-score
GACGAATTGAGTCTCGAGACGTGCTAG: 0.624 z-score
GACGATCTCAGACTGGAGACGTGCTAG: -0.276 z-score
TTAGGACTAGGTTTCGGTTAGTGCTAG: 8.23 z-score
TCAGGTCTCGGTTTCGGTTAGTGCTAG: 11.4 z-score
TCATATTTAAGAACTATGACTGTGCTA: 0.659 z-score
TTAGGTCTCGGTATCGGGTAGTGCTAG: 2.32 z-score
GACGCTTTCGGGACTGGAGACGTGCTA: 0.546 z-score
GACGGTTTCGGGACTTGGGACGTGCTA: 3.84 z-score
GACGAACTGAGTTTCGAGGCGTGCTAG: 2.01 z-score

Sample 4
Target: Histone acetyltransferase KAT6A, both winged helices, GST fusion (KAT6A, Homo sapiens, UniProt Q92794, residues 1-181)
Technique: protein binding microarray
Form: double-stranded DNA, one strand shown
Matrix: in vitro
Concentration: not given
Setting: 8-mer, flanks averaged, mean of 2 arrays, mostly near background
Reference: not given
Reading: higher = stronger binding
Quantity: E-score
Target sequence (chain): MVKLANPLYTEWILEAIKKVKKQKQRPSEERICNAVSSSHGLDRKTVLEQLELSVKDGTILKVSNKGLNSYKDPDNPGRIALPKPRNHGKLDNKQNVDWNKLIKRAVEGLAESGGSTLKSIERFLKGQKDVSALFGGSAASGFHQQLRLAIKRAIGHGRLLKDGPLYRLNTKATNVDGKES
GCAACGCC: 0.0501
ACAAAGCA: -0.0591
AACACACA: -0.13
ACATCTTC: -0.00969
ATAGTGAC: -0.0112
CTCGGGCC: 0.0544
AGGAGGCG: 0.0712
CCGTTCAA: 0.125
ACTGAAAG: 0.0708
GGAGATCA: -0.0438
CAAATTTA: -0.0538
CGGCTGCA: 0.196
AACGTCAA: 0.0322
CAGTTCGG: 0.0609
CTTTTCTA: -0.192
CTATTGAC: -0.0661
GAATGACC: -0.0154
CGTCAACA: 0.165
AAATCCTG: -0.125
GATCAGAA: -0.108

Excerpt of the above (sample 4):
CAAATTTA: -0.0538
CTTTTCTA: -0.192
GATCAGAA: -0.108
CGTCAACA: 0.165
ACAAAGCA: -0.0591
GAATGACC: -0.0154
